Measurements pooled from the literature.
Each numbered part is a random draw from the data of one study; scales do not carry over between parts. Substitutions count along the parent as printed.

Sample 1
Target: RNA binding protein fox-1 homolog 2, RRM domain, GST-SBP tag (RBFOX2, Homo sapiens, UniProt O43251-10, residues 100-194)
Technique: RNA Bind-n-Seq
Molecule type: RNA
Sample: in vitro
Concentration: 365 nM
Notes: natural RNA segment, single round, ends assumed
Relative to: no-protein control
Reading: higher = stronger binding
Endpoint: RBNS enrichment (R)
Constant ends, left off below: GGGAGUUCUACAGUCCGACGAUC … UGGAAUUCUCGGGUGCCAA
Residues (chain): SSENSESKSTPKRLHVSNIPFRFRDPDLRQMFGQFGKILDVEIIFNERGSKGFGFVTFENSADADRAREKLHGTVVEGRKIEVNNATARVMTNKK
CUGUGGGUCUCUGGAUCCUGACCAGUUUGGACUCUGAGUUUUGGGGACCAGGACACUGCGAGGACAGGGACCUGACUCAAAAGACACAGCUAUGCUUCCAAUUUUGCACA: 0.662
AGGCCGUGAUCACAUAUUCUACAGUCCAAAAGAGGGCCCGGAGCUCAGCAAUUACUCACGCCGUCACAUGUGCCCACAGUAGCGGGCUCCGCGGCGUGGCUCCUGCUGCC: 0.249
GGGGUUGGAGGUGCUGGGCAAUGGAACUUCAAAUUCAAUGUCGCCCAGCAGUGAGGGGAGUCGGGAGGUGAGGCCUGUAGGCCAACCAAUUGGUGGAGUCUCAGCGAUAG: 0.582
AAAUAGCAGCUGUUGUUUCUCUUUGGAAAGUGACAGCAGAAGUUGGUGGCAUGGGACUUUUUGUCCUUGGACACAAACCUGCAGAUCCUAGGAGUAAUAGUUUCCCCCAA: 0.241
GUGCAGAGUUUUACAGACACCCGGUCAGCCCGGCUGGAGCCCGCCCUCCCCUCCCCUAGCAGCCAGGUCACUGCCUGUGGCUGCAGCCGUGGCCCGUGGUGCAGCCGUGG: 0.428
CUAGUUAACAUGGGGAAAGAUGACAACAUUGUAUGUAGUGUUGAACCUGAAGACAUCCUACAAUGAUUUCCCACACUCUAUUUUUCCUUAUGUUUGCUUAAAUAGCAAAA: 0.27

Sample 2
Target: Sal-like protein 4, full length isoform B (SALL4, Homo sapiens, UniProt Q9UJQ4-2, residues 1-616)
Technique: universal PBM
Molecule type: double-stranded DNA, one strand shown
Sample: in vitro
Concentration: not given
Notes: 8-mer, flanks averaged, mean of replicates
Reading: higher = stronger binding
Endpoint: E-score
GCTTTGAA: 0.179
GAGCGCTC: -0.26
AAGATTGC: 0.0954
AAAGAAGA: 0.165
CTTTTCGC: 0.0231
GGTTCCAA: -0.138
CACGCATG: -0.137
ACCCTAGC: -0.17

Sample 3
Target: CCNB1, cyclin fold, Cln2 fusion (human)
Technique: yeast growth competition, sequencing
Sample: yeast
Notes: weak parent motif
Relative to: not given
Reading: higher = stronger binding
Endpoint: normalised enrichment score
Parent: SCAPER docking peptide (human); SNARRSLNFGGST
G11Y: 0.546
A3C: 0.376
R4M: -0.283
A3G: 0.419

Mixed results
PhoQ, residues 284 288 289 292 302 303 GASLAW — fold induction (PhoP, residues 12 14 15 18 19 GQAIL (Escherichia coli, UniProt P23836); Sort-seq, measured: YFP reporter; E. coli; PhoQ-PhoP variant library, with: 10 µM Mg2+; relative to: high Mg2+ state, higher = stronger signaling): 5.79
